Published values pooled from the literature.
Compare with care: the assays were run in different laboratories. ± gives the spread as reported.

| assay | system | setting | Tmax [h] | Compound |
| --- | --- | --- | --- | --- |
|  | rat Sprague-Dawley male, plasma | oral, 10 mg/kg of parent drug | 1 | Cc1noc(C)c1Cn1cc(N2C(=O)CN(Cc3cccc(O[C@@H]4O[C@H](C(=O)O)[C@@H](O)[C@H](O)[C@H]4O)c3)C2=O)cn1 |
| dynamic PET/CT | Sprague-Dawley rats female, lumbar spinal canal L1-L2 | intrathecal lumbar infusion, median | 1.25 | O=C(O)CN1CCN(CC(=O)O)CCN(C(CCC(=O)NCc2ccc(NC(=S)NCCNC(=O)CCCc3ccc(I)cc3)cc2)C(=O)O)CC1 (centres unmarked) |
|  | Sprague-Dawley rat, male, plasma | oral, 100 mg/kg/day of parent drug, day 1, 90-day repeated dosing | 3 | Cc1ccc(OCC(=O)O)cc1 |
|  | male Sprague-Dawley rat | oral, 25 mg/kg | 1.5 | N[C@@H](COc1ccccc1C(F)(F)F)c1ccccc1 |
|  | male Sprague-Dawley rat, plasma | oral, 50 mg/kg of parent drug | 1.75 | CCCC(CCC(=O)O)NC(=O)c1ccc2c(c1)OCO2 (centres unmarked) |
|  | Sprague-Dawley rat, both sexes, plasma | oral, 100 mg/kg | 0.63 ± 0.49 | COC(=O)/C=C/C(=O)c1ccc(OC)cc1 |
|  | rat Sprague-Dawley male, plasma | oral, 30 mg/kg of parent drug | 0.5 | Cc1noc(C)c1Cn1cc(N2C(=O)CN(Cc3cccc(OS(=O)(=O)O)c3)C2=O)cn1 |
|  | male Sprague-Dawley rat, plasma | oral, 20 mg/kg of parent drug | 1 | CCCC(CCC)NC(=O)c1ccc(OS(=O)(=O)O)c(OC)c1 |

Some of these lines once more:
| assay | system | setting | Tmax [h] | Compound |
| --- | --- | --- | --- | --- |
|  | male Sprague-Dawley rat, plasma | oral, 50 mg/kg of parent drug | 1.75 | CCCC(CCC(=O)O)NC(=O)c1ccc2c(c1)OCO2 (centres unmarked) |
